Assay results pooled from the literature.
“And” joins repeats or separate records; there may be more than shown. ± marks the error that the study gave.
U2AF2: U2AF2 148-342 (Homo sapiens, UniProt P26368)
Sequence of UniProt P26368 (whole entry, looked up): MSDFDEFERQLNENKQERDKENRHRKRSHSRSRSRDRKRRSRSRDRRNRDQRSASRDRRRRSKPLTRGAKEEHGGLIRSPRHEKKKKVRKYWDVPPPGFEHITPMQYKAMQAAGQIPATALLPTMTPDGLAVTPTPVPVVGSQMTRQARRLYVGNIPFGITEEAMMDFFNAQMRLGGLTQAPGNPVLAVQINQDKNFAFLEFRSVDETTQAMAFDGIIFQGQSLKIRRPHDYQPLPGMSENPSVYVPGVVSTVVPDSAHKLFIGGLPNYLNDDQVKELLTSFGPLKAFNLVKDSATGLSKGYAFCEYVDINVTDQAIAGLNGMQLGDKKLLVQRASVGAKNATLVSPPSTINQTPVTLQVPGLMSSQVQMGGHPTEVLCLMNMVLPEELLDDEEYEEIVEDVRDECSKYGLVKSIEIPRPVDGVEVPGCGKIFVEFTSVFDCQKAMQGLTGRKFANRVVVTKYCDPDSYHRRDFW
CDK5 with p25: Cyclin-dependent kinase 5, with p25 (CDK5, Homo sapiens, UniProt Q00535)
Sequence of UniProt Q00535 (whole entry, looked up): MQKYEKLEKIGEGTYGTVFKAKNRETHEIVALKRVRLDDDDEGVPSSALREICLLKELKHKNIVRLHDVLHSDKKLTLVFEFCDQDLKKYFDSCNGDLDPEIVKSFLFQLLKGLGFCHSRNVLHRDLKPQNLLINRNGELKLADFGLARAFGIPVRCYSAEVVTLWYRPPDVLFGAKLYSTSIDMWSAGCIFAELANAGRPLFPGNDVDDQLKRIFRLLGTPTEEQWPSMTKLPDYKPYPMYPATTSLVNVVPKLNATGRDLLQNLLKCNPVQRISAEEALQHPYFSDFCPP
B1: human REST; sequence looked up; chain MATQVMGQSSGGGGLFTSSGNIGMALPNDMYDLHDLSKAELAAPQLIMLANVALTGEVNGSCCDYLVGEERQMAELMPVGDNNFSDSEEGEGLEESADIKGEPHGLENMELRSLELSVVEPQPVFEASGAPDIYSSNKDLPPETPGAEDKGKSSKTKPFRCKPCQYEAESEEQFVHHIRVHSAKKFFVEESAEKQAKARESGSSTAEEGDFSKGPIRCDRCGYNTNRYDHYTAHLKHHTRAGDNERVYKCIICTYTTVSEYHWRKHLRNHFPRKVYTCGKCNYFSDRKNNYVQHVRTHTGERPYKCELCPYSSSQKTHLTRHMRTHSGEKPFKCDQCSYVASNQHEVTRHARQVHNGPKPLNCPHCDYKTADRSNFKKHVELHVNPRQFNCPVCDYAASKKCNLQYHFKSKHPTCPNKTMDVSKVKLKKTKKREADLPDNITNEKTEIEQTKIKGDVAGKKNEKSVKAEKRDVSKEKKPSNNVSVIQVTTRTRKSVTEVKEMDVHTGSNSEKFSKTKKSKRKLEVDSHSLHGPVNDEESSTKKKKKVESKSKNNSQEVPKGDSKVEENKKQNTCMKKSTKKKTLKNKSSKKSSKPPQKEPVEKGSAQMDPPQMGPAPTEAVQKGPVQVEPPPPMEHAQMEGAQIRPAPDEPVQMEVVQEGPAQKELLPPVEPAQMVGAQIVLAHMELPPPMETAQTEVAQMGPAPMEPAQMEVAQVESAPMQVVQKEPVQMELSPPMEVVQKEPVQIELSPPMEVVQKEPVKIELSPPIEVVQKEPVQMELSPPMGVVQKEPAQREPPPPREPPLHMEPISKKPPLRKDKKEKSNMQSERARKEQVLIEVGLVPVKDSWLLKESVSTEDLSPPSPPLPKENLREEASGDQKLLNTGEGNKEAPLQKVGAEEADESLPGLAANINESTHISSSGQNLNTPEGETLNGKHQTDSIVCEMKMDTDQNTRENLTGINSTVEEPVSPMLPPSAVEEREAVSKTALASPPATMAANESQEIDEDEGIHSHEGSDLSDNMSEGSDDSGLHGARPVPQESSRKNAKEALAVKAAKGDFVCIFCDRSFRKGKDYSKHLNRHLVNVYYLEEAAQGQE
B2: chain MSEILPYGEDKMGRFGADPEGSDLSFSCRLQDTNSFFAGNQAKRPPKLGQIGRAKRVVIEDDRIDDVLKGMGEKPPSGV
Sequence of UniProt Q64663 (whole entry, unmodified, looked up): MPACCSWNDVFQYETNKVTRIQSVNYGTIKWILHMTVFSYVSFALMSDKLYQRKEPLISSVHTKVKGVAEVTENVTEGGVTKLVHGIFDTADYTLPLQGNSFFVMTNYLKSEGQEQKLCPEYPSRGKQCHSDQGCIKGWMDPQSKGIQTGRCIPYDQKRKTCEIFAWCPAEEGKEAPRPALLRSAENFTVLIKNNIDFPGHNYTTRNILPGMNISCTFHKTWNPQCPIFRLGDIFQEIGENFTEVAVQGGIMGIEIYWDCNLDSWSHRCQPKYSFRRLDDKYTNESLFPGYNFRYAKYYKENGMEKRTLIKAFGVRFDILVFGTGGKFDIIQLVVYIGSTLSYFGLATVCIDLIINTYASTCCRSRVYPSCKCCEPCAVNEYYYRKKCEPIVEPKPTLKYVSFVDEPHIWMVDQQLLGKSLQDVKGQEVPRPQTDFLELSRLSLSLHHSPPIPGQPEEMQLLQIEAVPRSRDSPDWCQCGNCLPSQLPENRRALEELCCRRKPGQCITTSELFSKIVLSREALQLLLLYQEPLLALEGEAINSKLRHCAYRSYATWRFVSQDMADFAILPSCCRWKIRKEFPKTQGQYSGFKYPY
Sequence of UniProt Q9UQM7 (whole entry, unmodified, looked up): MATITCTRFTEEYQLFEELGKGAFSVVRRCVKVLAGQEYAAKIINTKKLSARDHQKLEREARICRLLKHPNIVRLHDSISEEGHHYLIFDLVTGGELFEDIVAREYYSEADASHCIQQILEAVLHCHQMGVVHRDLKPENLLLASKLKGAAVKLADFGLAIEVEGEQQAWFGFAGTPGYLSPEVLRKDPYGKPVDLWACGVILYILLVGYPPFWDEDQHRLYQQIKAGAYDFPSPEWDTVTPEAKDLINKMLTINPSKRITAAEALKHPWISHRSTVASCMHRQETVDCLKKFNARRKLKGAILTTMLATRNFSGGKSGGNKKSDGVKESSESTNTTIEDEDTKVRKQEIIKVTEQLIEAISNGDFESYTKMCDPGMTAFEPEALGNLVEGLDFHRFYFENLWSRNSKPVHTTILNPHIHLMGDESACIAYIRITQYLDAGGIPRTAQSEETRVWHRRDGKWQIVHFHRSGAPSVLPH
Sequence of UniProt Q5ANA3 (whole entry, looked up): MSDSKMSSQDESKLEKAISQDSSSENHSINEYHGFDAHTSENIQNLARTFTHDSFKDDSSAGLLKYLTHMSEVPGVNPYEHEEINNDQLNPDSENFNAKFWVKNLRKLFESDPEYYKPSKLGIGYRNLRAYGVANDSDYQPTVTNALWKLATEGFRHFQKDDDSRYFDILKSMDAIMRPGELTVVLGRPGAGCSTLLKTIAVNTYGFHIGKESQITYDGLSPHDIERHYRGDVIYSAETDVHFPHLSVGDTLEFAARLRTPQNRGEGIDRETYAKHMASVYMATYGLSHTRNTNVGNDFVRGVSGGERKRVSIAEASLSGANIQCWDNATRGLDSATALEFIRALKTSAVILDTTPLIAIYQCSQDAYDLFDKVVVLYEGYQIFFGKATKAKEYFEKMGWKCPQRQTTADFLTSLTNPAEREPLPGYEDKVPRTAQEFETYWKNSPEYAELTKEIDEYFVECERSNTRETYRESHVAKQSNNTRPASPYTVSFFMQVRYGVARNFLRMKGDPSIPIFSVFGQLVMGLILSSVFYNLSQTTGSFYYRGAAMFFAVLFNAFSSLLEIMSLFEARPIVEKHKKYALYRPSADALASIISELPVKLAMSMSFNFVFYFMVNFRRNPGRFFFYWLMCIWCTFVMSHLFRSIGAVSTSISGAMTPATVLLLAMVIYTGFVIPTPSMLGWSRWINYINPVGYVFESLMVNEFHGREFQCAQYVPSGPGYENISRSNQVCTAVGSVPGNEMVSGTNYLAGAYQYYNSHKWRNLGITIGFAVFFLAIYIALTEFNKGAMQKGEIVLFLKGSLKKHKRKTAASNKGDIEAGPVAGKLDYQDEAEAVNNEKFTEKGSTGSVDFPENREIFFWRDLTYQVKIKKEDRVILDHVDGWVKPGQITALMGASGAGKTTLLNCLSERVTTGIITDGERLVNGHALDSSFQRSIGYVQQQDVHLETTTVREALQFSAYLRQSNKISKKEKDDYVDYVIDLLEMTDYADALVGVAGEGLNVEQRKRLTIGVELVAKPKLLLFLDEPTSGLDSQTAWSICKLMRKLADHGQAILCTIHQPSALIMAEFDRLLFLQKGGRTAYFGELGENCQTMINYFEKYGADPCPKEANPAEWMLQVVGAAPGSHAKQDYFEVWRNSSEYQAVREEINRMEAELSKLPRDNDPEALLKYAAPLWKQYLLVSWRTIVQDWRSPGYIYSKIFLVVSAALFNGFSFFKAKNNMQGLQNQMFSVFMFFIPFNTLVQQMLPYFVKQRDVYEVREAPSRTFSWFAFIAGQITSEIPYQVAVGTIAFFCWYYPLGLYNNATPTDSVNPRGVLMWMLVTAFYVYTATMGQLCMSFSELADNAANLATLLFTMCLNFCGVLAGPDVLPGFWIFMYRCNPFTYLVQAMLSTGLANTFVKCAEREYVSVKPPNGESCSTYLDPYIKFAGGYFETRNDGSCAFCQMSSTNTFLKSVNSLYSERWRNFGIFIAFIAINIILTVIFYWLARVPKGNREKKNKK

Substance	target or system	test	system	conditions	how to read	quantity	result
human ME2 I58F		enzyme activity, NADH absorbance		with fumarate 3 mM, together with: L-malate varied		Hill coefficient	1.31 ± 0.13
milbemycin oxime	CDR1 (Candida albicans, UniProt Q5ANA3)	binding, microscale thermophoresis		1.25 µM		fraction bound	91.3%
11-deoxycorticosterone	CYP11B2 (human)	substrate binding, stopped-flow global kinetic fitting	purified enzyme	3-state conformational selection model, together with: no adrenodoxin		rate constant k-2	11.2 ± 0.631 s⁻¹
AUCAUUGUU (ssRNA)	U2AF2	sequencing of bound RNA	RNA	motif only		Kd	9.2 µM
KEAFWDRCLSVVNLMSSKMLQINA	CDK5 with p25	phosphotransferase activity, radiometric	peptide	concentration not given, 10% DMSO, together with: histone substrate	baseline: p5-WT peptide	activity change	59%
human ME2 E90D		enzyme activity, NADH absorbance		without fumarate, together with: L-malate varied		Hill coefficient	1.12 ± 0.03
KEAFWDRCLSVINLMSSKMLQGNA	CDK5 with p25	phosphotransferase activity, radiometric	peptide	concentration not given, 10% DMSO, together with: histone substrate	baseline: p5-WT peptide	activity change	71%
human CCT1	CYB5R4 knockout human cells	PP4 interaction, 3xFLAG-PP4C IP-MS		concentration not given	baseline: CYB5R4 KO over parental	log2 fold change	0.63
BzATP	P2X purinoceptor 7 (P2rx7, Rattus norvegicus, UniProt Q64663, Q143A)	ion current, agonist, two-electrode voltage clamp	Xenopus oocytes	100 µM		normalized current	1
human ME2 I99V		enzyme activity, activator, NADH absorbance	recombinant enzyme	range over 0 to 5 mM, pH 7.4	baseline: wild type	activation fold	1.4
KEAFWDRCLSVINLMSSKMLQING	CDK5 with p25	phosphotransferase activity, radiometric	peptide	concentration not given, 10% DMSO, together with: histone substrate	baseline: p5-WT peptide	activity change	38%
human ME2 T76N		enzyme activity, NADH absorbance		without fumarate, together with: L-malate varied		Hill coefficient	1.67 ± 0.08
B1 (human REST)	CYB5R4 knockout human cells	PP4 interaction, 3xFLAG-PP4C IP-MS		concentration not given	baseline: CYB5R4 KO over parental	log2 fold change	1.12
KEAFWDRCLSVIELMSSKMLQINA	CDK5 with p25	phosphotransferase activity, radiometric	peptide	concentration not given, 10% DMSO, together with: histone substrate	baseline: p5-WT peptide	activity change	62%
B2	CAMK2A (Homo sapiens, UniProt Q9UQM7, D135N)	binding, ITC	kinase domain D135N	together with: AMPPNP		−TΔS	-0.65 kcal/mol and -0.473 kcal/mol
UAGGUUUGG (ssRNA)	U2AF2	sequencing of bound RNA	RNA	motif only		Kd	4.84 µM

A few entries again:
Substance	target or system	test	system	conditions	how to read	quantity	result
human CCT1	CYB5R4 knockout human cells	PP4 interaction, 3xFLAG-PP4C IP-MS		concentration not given	baseline: CYB5R4 KO over parental	log2 fold change	0.63
human ME2 I99V		enzyme activity, activator, NADH absorbance	recombinant enzyme	range over 0 to 5 mM, pH 7.4	baseline: wild type	activation fold	1.4
